Published values gathered from unrelated publications.
A part holds a random share of what one study measured.

Sample 1
Target: Interferon regulatory factor 5, full length, phosphomimetic (IRF5, Homo sapiens, UniProt Q13568-2, residues 1-514, S451D/S453D/S456D/S462D)
Technique: protein-binding microarray
Molecule type: double-stranded DNA, one strand shown
Sample: in vitro
Tested at: 940 nM top
Notes: 60-bp whole probe
Together with: salmon DNA 0.4 mg/ml
Reference: random background probes
Reading: higher = stronger binding
All sequences stand within: GCCTAGCAC … GTCTTGATTCGCTTGACGCTGCTG
Strand | fitted relative affinity [z-score]
TCAGGACTGGACACTGGGTTAGTGCTA | -0.364
TTAGAACTGAGATTGGATTAGTGCTAG | -0.31
TCATCTTCATGTTTTTTACTGTGCTAG | 0.95
GACGAACTGGGCACTGGAGACGTGCTA | -0.673
TTAGGTTTCGGGTATCGATTAGTGCTA | 10.9

Sample 2
Target: Sal-like protein 4, full length isoform A (SALL4, Homo sapiens, UniProt Q9UJQ4, residues 1-1053)
Chain of UniProt Q9UJQ4 (whole entry, looked up): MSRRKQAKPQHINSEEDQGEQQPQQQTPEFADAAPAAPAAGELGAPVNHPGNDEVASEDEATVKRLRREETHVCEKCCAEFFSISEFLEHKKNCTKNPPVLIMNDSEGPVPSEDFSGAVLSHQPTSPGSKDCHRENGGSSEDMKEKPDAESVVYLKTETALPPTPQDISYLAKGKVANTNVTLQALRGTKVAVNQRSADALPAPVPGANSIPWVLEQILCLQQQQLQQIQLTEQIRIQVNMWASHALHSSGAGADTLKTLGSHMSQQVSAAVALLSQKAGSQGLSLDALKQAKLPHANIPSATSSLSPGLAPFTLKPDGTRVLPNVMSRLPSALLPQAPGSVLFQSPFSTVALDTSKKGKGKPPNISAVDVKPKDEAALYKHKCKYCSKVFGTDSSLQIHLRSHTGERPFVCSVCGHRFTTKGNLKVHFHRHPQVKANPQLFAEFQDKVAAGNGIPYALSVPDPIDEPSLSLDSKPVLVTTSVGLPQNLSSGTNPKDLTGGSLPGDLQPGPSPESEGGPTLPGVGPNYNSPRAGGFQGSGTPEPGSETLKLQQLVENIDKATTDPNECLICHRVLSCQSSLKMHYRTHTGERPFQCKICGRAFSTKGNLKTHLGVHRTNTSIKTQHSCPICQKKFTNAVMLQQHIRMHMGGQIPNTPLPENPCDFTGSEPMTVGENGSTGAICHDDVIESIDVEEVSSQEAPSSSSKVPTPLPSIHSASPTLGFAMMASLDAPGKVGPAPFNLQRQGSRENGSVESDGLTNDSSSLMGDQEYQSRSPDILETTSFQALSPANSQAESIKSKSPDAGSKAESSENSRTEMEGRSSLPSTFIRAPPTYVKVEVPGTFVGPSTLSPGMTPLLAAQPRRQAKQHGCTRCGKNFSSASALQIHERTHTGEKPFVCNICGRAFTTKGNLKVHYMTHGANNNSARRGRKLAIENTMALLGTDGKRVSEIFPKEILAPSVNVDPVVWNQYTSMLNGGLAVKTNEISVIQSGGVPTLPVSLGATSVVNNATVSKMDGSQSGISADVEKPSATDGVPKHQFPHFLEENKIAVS
Technique: universal PBM
Molecule type: double-stranded DNA, one strand shown
Sample: in vitro
Tested at: 600 nM
Notes: 8-mer, flanks averaged, mean of replicates
Reading: higher = stronger binding
Strand | E-score
ATCAGTGG | -0.052
AAACTCTC | -0.0421
AGAGGCAA | 0.00483
AGTACGAC | 0.00367
GTAATCCA | 0.123

Sample 3
Target: Phosphate system positive regulatory protein PHO4, full length, GST-tagged (PHO4, Saccharomyces cerevisiae, UniProt P07270, residues 1-312)
Technique: competition protein-binding microarray
Molecule type: double-stranded DNA, one strand shown
Sample: in vitro
Tested at: 2 µM
Notes: whole 60-bp probe, lowest competitor level
Together with: Cbf1 competitor, 0.05 µM
Reading: higher = stronger binding
Residues (chain): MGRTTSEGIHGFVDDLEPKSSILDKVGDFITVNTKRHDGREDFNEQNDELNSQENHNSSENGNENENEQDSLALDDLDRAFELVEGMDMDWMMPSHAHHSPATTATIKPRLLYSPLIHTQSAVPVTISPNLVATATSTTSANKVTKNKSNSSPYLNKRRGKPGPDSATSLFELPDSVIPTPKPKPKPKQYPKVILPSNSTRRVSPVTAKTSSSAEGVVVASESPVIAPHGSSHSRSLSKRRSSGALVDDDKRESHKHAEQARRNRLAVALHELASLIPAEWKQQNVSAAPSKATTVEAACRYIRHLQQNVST
Strand | fluorescence intensity
CATTTGACTCCATAGAACGTGTGGAGCTGGTGCCATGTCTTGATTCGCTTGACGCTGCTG | 10700 a.u.
TTTCATAGAAACAAATCCGTGATGGTTTAATGGTCAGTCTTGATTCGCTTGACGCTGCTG | 3710 a.u.
AAATTACTAAGTTGGGCCGTGGGTGACGCCGTATGAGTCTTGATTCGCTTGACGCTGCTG | 5290 a.u.
AAGTGCAGATCGCTGTCTTGCTCCAATCCTCTTATTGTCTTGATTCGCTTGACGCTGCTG | 2740 a.u.
CGTCCTAGTGATTGCGGCGTGGGTGCCATGAGGAAGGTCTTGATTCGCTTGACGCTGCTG | 8970 a.u.

Other studies, line by line
Molecule | target | assay | system | conditions | scale | endpoint | result
PhoQ, residues 284 288 289 292 302 303 SCCLKL | PhoP, residues 12 14 15 18 19 SQCLL (Escherichia coli, UniProt P23836) | Sort-seq, item: YFP reporter | E. coli | PhoQ-PhoP variant library, together with: 10 µM Mg2+ | reference: high Mg2+ state, higher = stronger signaling | fold induction | 7.24

Some of these lines once more (sample 1):
Strand | fitted relative affinity [z-score]
TCATCTTCATGTTTTTTACTGTGCTAG | 0.95
TTAGAACTGAGATTGGATTAGTGCTAG | -0.31
